Measured values gathered from unrelated publications.
“And” joins repeats or separate records; there may be more than shown. ± gives the spread as reported.
GBA2: Beta-glucosidase (GBA2, Homo sapiens, UniProt Q9HCG7)
CASP3: Caspase-3 (CASP3, Homo sapiens, UniProt P42574)
B4GALT1: Beta-1,4-galactosyltransferase 1 (B4GALT1, Homo sapiens, UniProt P15291)

SMILES | target | assay | system | setting | scale | measurement | value
OC[C@H]1[C@@H](O)[C@H](O)[C@@H](O)CN1CCCCCOCc1cccc(-c2ccccc2)c1 | GBA2 | inhibitor, 4MU-β-D-glucopyranoside | HEK293T homogenates overexpressing GBA2 | – | reference: GCS IC50 over GBA2 IC50 | selectivity ratio | 35
CCN(CC)C(CO)c1cccc2c(C)c(C)oc12 (stereo not shown) | LPAR1 (Homo sapiens, UniProt Q92633) | G-protein dissociation, agonist, NanoBiT | HEK-293T | 100 pM, wild-type receptor | reference: baseline luminescence | fold change | 0.943 and 1.02 and 0.982 and 0.979 and 0.992
C=CC(=O)N1CCCC(n2c(=O)c3ncccc3n(Cc3ccc(Oc4ccccc4)cc3)c2=O)C1 (stereo not shown) | Protein TMED8 (TMED8, Homo sapiens, UniProt Q6PL24) | thermal proteome profiling, refers to: TMED8 | – | treated | – | melting temperature | 46.3 °C and 48.9 °C
N=C(N)c1cnc(-c2ccc(-c3cnc(C(=N)N)cn3)o2)cn1 | PRMT5 (Homo sapiens, UniProt O14744) | enzyme activity, inhibitor, radiometric | – | 20 µM | – | remaining activity | 38.5%
CC(=O)N[C@@H](CC(C)C)C(=O)N[C@H](C(=O)N[C@@H](C)C(=O)N[C@@H](CC(=O)O)C(=O)COC(=O)c1c(C)cccc1C)C(C)(C)C | CASP3 | enzyme activity, inhibitor | – | – | – | kinact/KI | 24500 M⁻¹ s⁻¹
OC[C@@H]1[C@@H](O)[C@H](O)[C@@H](O)CN1CCCCCOCc1ccc(-c2ccc(C(F)(F)F)cc2)cc1 | GBA2 | inhibitor, 4MU-β-D-glucopyranoside | HEK293T homogenates overexpressing GBA2 | – | reference: GBA1 IC50 over GBA2 IC50 | selectivity ratio | 400
CNC(=O)C[C@H](Cc1ccc(C#N)cc1)NC(=O)c1cc(-c2ccc(CN[C@H](C)c3ccc(C)cc3)o2)ccc1Cl | ATPase family AAA domain-containing protein 2, bromodomain (ATAD2, Homo sapiens, UniProt Q6PL18) | thermal shift | – | 25 µM, GST-tagged protein | – | ΔTm | 0 °C
OC[C@@H]1[C@@H](O)[C@H](O)[C@@H](O)CN1CCCCCOCCC12CC3CC(CC(C3)C1)C2 | GBA2 | inhibitor, 4MU-β-D-glucopyranoside | HEK293T homogenates overexpressing GBA2 | – | reference: GCS IC50 over GBA2 IC50 | selectivity ratio | 1000
CC(=O)N[C@@H](CC(=O)O)C(=O)N[C@@H](CC(C)C)C(=O)N[C@H](C(=O)N[C@@H](C)C(=O)N[C@@H](CC(=O)O)C(=O)COC(=O)c1c(C)cccc1C)[C@@H](C)O | CASP3 | enzyme activity, inhibitor | – | – | – | kinact/KI | 88500 M⁻¹ s⁻¹
CCCCCCCCCCCCCCCC(=O)OCC(CSC[C@H](N)C(=O)N[C@@H](CO)C(=O)N[C@@H](CCCCN)C(=O)N[C@@H](CCCCN)C(=O)N[C@@H](CCCCN)C(=O)N[C@@H](CCCCN)C(=O)NCCCCCC(=O)N[C@@H](CCCCN)C(=O)N[C@@H](CC(C)C)C(=O)N[C@H](C(=O)N[C@@H](Cc1ccccc1)C(=O)N[C@@H](Cc1ccccc1)C(=O)N[C@@H](Cc1ccc2ccccc2c1)C(=O)O)C(C)C)OC(=O)CCCCCCCCCCCCCCC (stereo partly shown) | Amyloid-beta precursor protein, fibrillar amyloid-beta (APP, Homo sapiens, UniProt P05067) | TEM | – | 2.0 eq, 5 h, fibril 2, with: APP 20 µM | – | fibril diameter | 73.4 nm
CCCCCCCN1C[C@H](O)[C@@H](O)[C@H](O)[C@H]1CO | GBA2 | inhibitor, 4MU-β-D-glucopyranoside | HEK293T homogenates overexpressing GBA2 | – | reference: GBA1 IC50 over GBA2 IC50 | selectivity ratio | 411
CN1Cc2ccccc2CC1C(=O)N1CCN(c2cc(=O)[nH]c(N)n2)CC1 (stereo not shown) | B4GALT1 | enzyme activity, inhibitor, UDP-Glo | – | 10 µM | lower means stronger inhibition | luminescence | 65200 a.u.
OC[C@@H]1[C@@H](O)[C@H](O)[C@@H](O)CN1CCCCCOCc1ccc(-c2cc(C(F)(F)F)cc(C(F)(F)F)c2)cc1 | GBA2 | inhibitor, 4MU-β-D-glucopyranoside | HEK293T homogenates overexpressing GBA2 | – | reference: GCS IC50 over GBA2 IC50 | selectivity ratio | 1
Cc1cc(CC(C)NC(=O)c2cc(=O)[nH]c3ccc(F)cc23)[nH]n1 (stereo not shown) | B4GALT1 | enzyme activity, inhibitor, UDP-Glo | – | 10 µM | lower means stronger inhibition | luminescence | 72000 a.u.
Cc1cc(C)c2c(Cn3ccnc3)cc(=O)oc2c1 | ADRA1B (Homo sapiens, UniProt P35368) | flow cytometry binding | COS-7 | 500 µM, tracer 6.25 nM | – | inhibition of binding | 10.6 ± 0.85%
CCCCCCCO[C@H]1O[C@H](CO)[C@@H](O)[C@H](O)[C@@H]1O | Type 1 fimbrin D-mannose specific adhesin, lectin domain (fimH, Escherichia coli K-12, UniProt P08191) | isothermal titration calorimetry | – | concentration not given, 15 °C | – | enthalpy change (ΔH obs) | -9.78 kcal/mol
CC(C)Oc1cc(Cl)ccc1CNc1cc(-c2ccccc2)nc2ncnn12 | GPR3 (Homo sapiens, UniProt P46089, M156A) | cAMP level, cAMP GloSensor | – | 10 pM | higher = more cAMP | cAMP luminescence | 38800 a.u. and 29800 a.u. and 32200 a.u. and 33700 a.u.
OC[C@H]1[C@@H](O)[C@H](O)[C@@H](O)CN1CCCCCOCC12CC3CC(C1)CC(COCCCCCN1C[C@H](O)[C@@H](O)[C@H](O)[C@@H]1CO)(C3)C2 | GBA2 | inhibitor, 4MU-β-D-glucopyranoside | HEK293T homogenates overexpressing GBA2 | – | reference: GBA1 IC50 over GBA2 IC50 | selectivity ratio | 462
N=C(N)NCCS(=O)(=O)O | SLC6A6 (Homo sapiens, UniProt P31641, Y138A) | binding, microscale thermophoresis | – | 250 µM, room temperature, with: 50 nM labelled protein | higher = more binding | normalised MST signal | 0.00599
Cn1c(=O)n(C2CCC(=O)NC2=O)c2ccc(C3CCN(CC(=O)Nc4cccc(CS(=O)(=O)N5CC[C@H](Nc6cccc(-c7sc(C(=O)O)c(OCC(=O)O)c7Cl)c6)CC5(C)C)c4)CC3)cc21 (stereo partly shown) | Tyrosine-protein phosphatase non-receptor type 2 (Ptpn2, Mus musculus, UniProt Q06180) | degrader, Western blot | B16-F10 | 0.1 µM | – | remaining protein | 3.9% and 4.8%
N[C@H]1CC[C@H](Nc2nccc(-c3cccnc3Oc3ccc(NC(=O)NC4CC4)c4ccccc34)n2)CC1 | TRIM28 (Homo sapiens, UniProt Q13263) | kinobead competition pulldown | HEK293/HCT116 lysate mixture | 10 µM, 1 h, 4 °C | lower = stronger competition | log2 LFQ intensity | 22.2 and 22.8 and 22
CC[C@H](C)[C@H](NC(=O)[C@H](CCC(=O)O)NC(=O)[C@H](Cc1ccc(I)cc1)NC(C)=O)C(=O)N[C@@H](CC(=O)O)C(=O)COC(=O)c1c(C)cccc1C | CASP3 | enzyme activity, inhibitor | – | – | – | kinact/KI | 197000 M⁻¹ s⁻¹
O=C1c2sc(-c3ccc(N4CCC(CO)CC4)nc3F)nc2CCN1c1cccnc1 | TAR DNA-binding protein 43, aggregated (TARDBP, Homo sapiens, UniProt Q13148) | radioligand binding | human, FTLD-TDP type B sarkosyl-insoluble extract | 6.91 nM | – | specific binding | 0.663 nM and 1.05 nM
CCCCCCCCCCCCCCCC(=O)N[C@@H](CCCNC(=N)N)C(=O)NCCCC[C@H](NC(=O)[C@H](CCC(N)=O)NC(=O)[C@H](Cc1c[nH]cn1)NC(=O)[C@H](CCCC)NC(=O)[C@H](CC(C)C)NC(=O)[C@H](CCC(N)=O)NC(=O)[C@@H](NC(=O)[C@H](CCC(=O)O)NC(=O)C(C)(C)NC(=O)[C@@H](NC(=O)C1(N)CCCC1)C(C)C)[C@@H](C)CC)C(N)=O | PTH1R (Homo sapiens, UniProt Q03431) | cAMP response, agonist, GloSensor cAMP | GP-2.3 | washout phase | – | Emax | 156 ± 9%
CCCCCCCOCCCCCN1C[C@H](O)[C@@H](O)[C@H](O)[C@@H]1CO | GBA2 | inhibitor, 4MU-β-D-glucopyranoside | HEK293T homogenates overexpressing GBA2 | – | reference: GBA1 IC50 over GBA2 IC50 | selectivity ratio | 2670
CC(=O)c1cnc(N)nc1N1CC[C@H]1c1nn2ccc(Cl)c2c(=O)n1-c1ccccc1 | PIK3CG (Homo sapiens, UniProt P48736) | KiNativ | intact human PBMC | 1 µM, 1 h | – | target engagement | 82%
CC(C)=CCOCCCCCN1C[C@H](O)[C@@H](O)[C@H](O)[C@@H]1CO | GBA2 | inhibitor, 4MU-β-D-glucopyranoside | HEK293T homogenates overexpressing GBA2 | – | reference: GBA1 IC50 over GBA2 IC50 | selectivity ratio | 17200
CC(C)[C@@H]1NC(=O)[C@H](Cc2ccccc2)NC(=O)CSC[C@@H](C(N)=O)NC(=O)[C@H](CCC(=O)O)NC(=O)[C@H](CO)NC(=O)[C@H](Cc2c[nH]c3cccc(Cl)c23)NC(=O)[C@H](C2CCCCC2)NC(=O)[C@H](C(C)C)NC(=O)[C@H](Cc2ccc(O)cc2)NC(=O)[C@H](CC(=O)O)NC(=O)[C@H](Cc2c[nH]c3ccccc23)NC(=O)[C@H](Cc2ccc(N)nc2)NC(=O)[C@H](Cc2c[nH]c3ccc(Cl)cc23)NC(=O)[C@H](CCC(=O)O)NC1=O | Interleukin-1 receptor-like 2 (IL1RL2, Homo sapiens, UniProt Q9HB29) | reporter gene (SEAP), inhibitor, HEK-Blue IL-36R reporter | HEK-Blue IL-36R cells | 100 µM, 6 h, with: IL-36β 1 ng/mL | – | remaining activity | 13.5%

A few entries again:
SMILES | target | assay | system | setting | scale | measurement | value
O=C1c2sc(-c3ccc(N4CCC(CO)CC4)nc3F)nc2CCN1c1cccnc1 | TAR DNA-binding protein 43, aggregated (TARDBP, Homo sapiens, UniProt Q13148) | radioligand binding | human, FTLD-TDP type B sarkosyl-insoluble extract | 6.91 nM | – | specific binding | 0.663 nM and 1.05 nM
CCCCCCCN1C[C@H](O)[C@@H](O)[C@H](O)[C@H]1CO | GBA2 | inhibitor, 4MU-β-D-glucopyranoside | HEK293T homogenates overexpressing GBA2 | – | reference: GBA1 IC50 over GBA2 IC50 | selectivity ratio | 411
CC[C@H](C)[C@H](NC(=O)[C@H](CCC(=O)O)NC(=O)[C@H](Cc1ccc(I)cc1)NC(C)=O)C(=O)N[C@@H](CC(=O)O)C(=O)COC(=O)c1c(C)cccc1C | CASP3 | enzyme activity, inhibitor | – | – | – | kinact/KI | 197000 M⁻¹ s⁻¹
CC(C)=CCOCCCCCN1C[C@H](O)[C@@H](O)[C@H](O)[C@@H]1CO | GBA2 | inhibitor, 4MU-β-D-glucopyranoside | HEK293T homogenates overexpressing GBA2 | – | reference: GBA1 IC50 over GBA2 IC50 | selectivity ratio | 17200
OC[C@@H]1[C@@H](O)[C@H](O)[C@@H](O)CN1CCCCCOCc1ccc(-c2cc(C(F)(F)F)cc(C(F)(F)F)c2)cc1 | GBA2 | inhibitor, 4MU-β-D-glucopyranoside | HEK293T homogenates overexpressing GBA2 | – | reference: GCS IC50 over GBA2 IC50 | selectivity ratio | 1
